# Published values collected from several papers.
# Every numbered part comes from another study and shows a few of its results, in no order. “And” joins repeats or separate records; there may be more than shown.
# UniProt P42685, sequence (whole entry, looked up): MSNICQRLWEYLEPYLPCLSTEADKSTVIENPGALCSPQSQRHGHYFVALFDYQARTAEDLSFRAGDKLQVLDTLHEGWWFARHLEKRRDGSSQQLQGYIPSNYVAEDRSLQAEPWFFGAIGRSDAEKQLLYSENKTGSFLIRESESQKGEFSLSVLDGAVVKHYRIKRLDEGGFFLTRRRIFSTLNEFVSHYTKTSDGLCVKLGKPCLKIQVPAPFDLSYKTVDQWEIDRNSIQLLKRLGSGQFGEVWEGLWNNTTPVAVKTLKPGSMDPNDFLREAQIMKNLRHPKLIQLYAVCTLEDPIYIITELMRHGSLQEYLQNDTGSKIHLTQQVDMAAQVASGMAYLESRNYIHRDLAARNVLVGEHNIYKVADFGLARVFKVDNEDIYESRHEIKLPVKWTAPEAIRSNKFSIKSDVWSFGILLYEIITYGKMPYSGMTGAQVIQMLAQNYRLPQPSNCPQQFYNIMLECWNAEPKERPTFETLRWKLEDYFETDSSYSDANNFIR
# UniProt Q9H4A3, sequence (whole entry, looked up): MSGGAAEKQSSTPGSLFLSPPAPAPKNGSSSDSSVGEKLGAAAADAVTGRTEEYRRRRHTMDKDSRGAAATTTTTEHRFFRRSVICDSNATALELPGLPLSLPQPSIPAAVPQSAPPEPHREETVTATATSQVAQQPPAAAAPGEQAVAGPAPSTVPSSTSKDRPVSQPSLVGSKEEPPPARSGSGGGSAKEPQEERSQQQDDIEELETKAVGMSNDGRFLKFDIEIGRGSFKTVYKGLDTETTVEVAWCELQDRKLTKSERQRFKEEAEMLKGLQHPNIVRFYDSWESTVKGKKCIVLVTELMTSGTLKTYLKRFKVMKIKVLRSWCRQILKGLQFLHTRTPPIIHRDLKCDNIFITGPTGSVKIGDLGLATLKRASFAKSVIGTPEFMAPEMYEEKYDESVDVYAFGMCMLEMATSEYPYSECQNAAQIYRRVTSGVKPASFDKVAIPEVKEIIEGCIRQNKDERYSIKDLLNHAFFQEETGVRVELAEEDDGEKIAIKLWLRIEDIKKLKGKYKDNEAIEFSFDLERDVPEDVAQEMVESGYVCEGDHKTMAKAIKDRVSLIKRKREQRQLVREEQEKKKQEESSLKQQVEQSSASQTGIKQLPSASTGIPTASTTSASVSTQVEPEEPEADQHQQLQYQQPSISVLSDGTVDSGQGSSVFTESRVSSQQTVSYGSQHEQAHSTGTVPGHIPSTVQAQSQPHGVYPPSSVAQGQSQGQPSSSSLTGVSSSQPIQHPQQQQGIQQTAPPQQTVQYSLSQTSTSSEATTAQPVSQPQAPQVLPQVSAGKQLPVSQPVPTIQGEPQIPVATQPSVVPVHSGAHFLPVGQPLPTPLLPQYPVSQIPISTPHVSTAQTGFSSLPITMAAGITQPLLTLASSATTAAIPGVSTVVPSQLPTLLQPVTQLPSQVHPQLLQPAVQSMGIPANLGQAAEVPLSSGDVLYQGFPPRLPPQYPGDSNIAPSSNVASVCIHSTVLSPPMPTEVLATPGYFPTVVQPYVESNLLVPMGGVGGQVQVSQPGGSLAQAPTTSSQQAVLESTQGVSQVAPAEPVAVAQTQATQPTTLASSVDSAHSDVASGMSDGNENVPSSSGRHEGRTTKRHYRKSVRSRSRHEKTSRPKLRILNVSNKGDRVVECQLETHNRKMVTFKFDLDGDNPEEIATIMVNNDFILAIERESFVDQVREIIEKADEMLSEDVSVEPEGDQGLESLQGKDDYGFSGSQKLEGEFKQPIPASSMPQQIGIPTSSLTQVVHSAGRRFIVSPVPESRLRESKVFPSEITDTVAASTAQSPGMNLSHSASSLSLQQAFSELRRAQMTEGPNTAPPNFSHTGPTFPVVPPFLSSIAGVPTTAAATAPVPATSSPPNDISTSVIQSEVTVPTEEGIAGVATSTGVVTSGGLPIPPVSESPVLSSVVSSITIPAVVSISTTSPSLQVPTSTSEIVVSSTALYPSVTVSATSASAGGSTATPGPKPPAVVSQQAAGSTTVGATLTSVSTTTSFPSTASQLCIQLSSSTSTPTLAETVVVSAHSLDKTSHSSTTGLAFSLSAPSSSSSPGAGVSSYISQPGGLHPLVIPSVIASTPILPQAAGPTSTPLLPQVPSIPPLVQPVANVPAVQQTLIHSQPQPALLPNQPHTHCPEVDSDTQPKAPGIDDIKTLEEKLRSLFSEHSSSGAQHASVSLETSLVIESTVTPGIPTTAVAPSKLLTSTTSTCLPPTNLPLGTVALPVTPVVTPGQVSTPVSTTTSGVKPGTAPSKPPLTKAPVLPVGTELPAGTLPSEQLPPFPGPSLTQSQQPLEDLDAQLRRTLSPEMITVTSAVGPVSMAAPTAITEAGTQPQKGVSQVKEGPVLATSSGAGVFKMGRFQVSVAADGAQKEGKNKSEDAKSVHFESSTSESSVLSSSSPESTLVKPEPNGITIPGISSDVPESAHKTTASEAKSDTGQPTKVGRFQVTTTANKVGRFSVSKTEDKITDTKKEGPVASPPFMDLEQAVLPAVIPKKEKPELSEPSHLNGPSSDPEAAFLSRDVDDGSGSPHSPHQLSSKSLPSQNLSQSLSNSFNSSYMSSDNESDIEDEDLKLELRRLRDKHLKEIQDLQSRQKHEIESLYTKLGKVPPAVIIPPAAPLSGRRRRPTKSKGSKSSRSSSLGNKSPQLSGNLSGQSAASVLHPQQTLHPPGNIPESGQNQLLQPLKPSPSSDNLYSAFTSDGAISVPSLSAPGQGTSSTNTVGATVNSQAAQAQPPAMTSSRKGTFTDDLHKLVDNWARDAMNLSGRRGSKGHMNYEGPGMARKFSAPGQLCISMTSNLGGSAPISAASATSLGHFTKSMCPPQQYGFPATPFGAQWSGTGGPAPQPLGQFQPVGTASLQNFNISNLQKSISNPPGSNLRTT
# UniProt P0C264, sequence (whole entry, looked up): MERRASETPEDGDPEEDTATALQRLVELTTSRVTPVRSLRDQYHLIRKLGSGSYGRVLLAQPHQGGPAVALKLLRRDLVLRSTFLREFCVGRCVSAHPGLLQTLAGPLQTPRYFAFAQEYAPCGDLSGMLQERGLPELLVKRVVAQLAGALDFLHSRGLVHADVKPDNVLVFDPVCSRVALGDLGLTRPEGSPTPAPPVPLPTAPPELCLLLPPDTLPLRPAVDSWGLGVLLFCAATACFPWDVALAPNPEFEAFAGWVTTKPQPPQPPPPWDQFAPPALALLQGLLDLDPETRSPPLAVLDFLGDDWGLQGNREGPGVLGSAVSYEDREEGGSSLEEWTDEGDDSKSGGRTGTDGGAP
# UniProt Q13043, sequence (whole entry, looked up): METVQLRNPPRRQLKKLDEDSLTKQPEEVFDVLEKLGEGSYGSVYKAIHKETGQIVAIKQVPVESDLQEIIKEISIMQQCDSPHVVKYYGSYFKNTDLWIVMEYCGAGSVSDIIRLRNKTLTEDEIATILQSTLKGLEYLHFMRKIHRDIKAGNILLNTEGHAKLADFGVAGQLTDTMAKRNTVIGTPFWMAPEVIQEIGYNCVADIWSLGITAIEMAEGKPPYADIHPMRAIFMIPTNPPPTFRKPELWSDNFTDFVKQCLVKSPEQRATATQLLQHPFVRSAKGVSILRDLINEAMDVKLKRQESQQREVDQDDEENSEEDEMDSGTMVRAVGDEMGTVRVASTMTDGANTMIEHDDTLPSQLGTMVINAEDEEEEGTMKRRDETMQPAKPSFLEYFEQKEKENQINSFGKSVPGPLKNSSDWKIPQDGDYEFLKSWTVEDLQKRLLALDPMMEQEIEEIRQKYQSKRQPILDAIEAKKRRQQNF
# UniProt P42336, sequence (whole entry, unmodified, looked up): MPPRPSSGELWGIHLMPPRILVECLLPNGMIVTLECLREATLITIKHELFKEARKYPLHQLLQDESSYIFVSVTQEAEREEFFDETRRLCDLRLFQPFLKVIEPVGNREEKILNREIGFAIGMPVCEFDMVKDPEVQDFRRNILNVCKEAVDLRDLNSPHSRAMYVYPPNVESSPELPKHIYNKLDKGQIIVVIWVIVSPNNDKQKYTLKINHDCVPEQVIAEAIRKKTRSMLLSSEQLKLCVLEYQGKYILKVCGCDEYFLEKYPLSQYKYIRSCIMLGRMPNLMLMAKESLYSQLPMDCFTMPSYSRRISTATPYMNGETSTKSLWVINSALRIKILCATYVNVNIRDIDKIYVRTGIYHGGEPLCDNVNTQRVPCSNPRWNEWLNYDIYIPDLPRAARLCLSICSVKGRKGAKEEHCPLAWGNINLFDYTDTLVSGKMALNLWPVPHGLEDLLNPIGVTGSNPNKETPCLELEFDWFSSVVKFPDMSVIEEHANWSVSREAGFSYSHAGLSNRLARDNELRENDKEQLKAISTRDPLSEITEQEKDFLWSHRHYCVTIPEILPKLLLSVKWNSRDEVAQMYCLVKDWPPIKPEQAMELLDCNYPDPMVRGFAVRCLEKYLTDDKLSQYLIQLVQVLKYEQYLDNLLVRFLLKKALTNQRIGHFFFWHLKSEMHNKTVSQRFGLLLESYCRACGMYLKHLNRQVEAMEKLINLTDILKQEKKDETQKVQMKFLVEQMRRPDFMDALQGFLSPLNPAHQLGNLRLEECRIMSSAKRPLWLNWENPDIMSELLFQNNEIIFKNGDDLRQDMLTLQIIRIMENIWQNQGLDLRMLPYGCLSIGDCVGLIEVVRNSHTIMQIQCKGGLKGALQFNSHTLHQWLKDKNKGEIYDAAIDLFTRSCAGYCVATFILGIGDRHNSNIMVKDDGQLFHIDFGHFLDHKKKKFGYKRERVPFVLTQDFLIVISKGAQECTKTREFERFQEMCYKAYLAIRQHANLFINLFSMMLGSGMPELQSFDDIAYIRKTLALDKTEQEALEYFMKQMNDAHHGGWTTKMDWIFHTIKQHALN

# Set 1
# Structure (SMILES): Cc1noc([C@H]2C[C@@H](c3ccc(C(F)(F)F)cc3)CN(C(=O)N3CCS(=O)(=O)C3)C2)n1
# Read-out: cell-free assay
# Technique: competition with immobilised ligand
# Tested at: 1 µM
target,remaining binding
"Tyrosine-protein kinase ABL1, phosphorylated (ABL1, Homo sapiens, UniProt P00519, H396P)",100%
"Phosphatidylinositol 4,5-bisphosphate 3-kinase catalytic subunit alpha isoform (PIK3CA, Homo sapiens, UniProt P42336, H1047Y)",95%
"Tyrosine-protein kinase FRK (FRK, Homo sapiens, UniProt P42685)",100%
"Uncharacterized serine/threonine-protein kinase SBK3 (SBK3, Homo sapiens, UniProt P0C264)",84%
"Serine/threonine-protein kinase 4 (STK4, Homo sapiens, UniProt Q13043)",100%
"Serine/threonine-protein kinase WNK1 (WNK1, Homo sapiens, UniProt Q9H4A3)",86%
"1-phosphatidylinositol 3-phosphate 5-kinase (PIKFYVE, Homo sapiens, UniProt Q9Y2I7)",100%

# Set 2
# Target: Tyrosine-protein kinase ITK/TSK (ITK, Homo sapiens, UniProt Q08881)
# Read-out: enzyme activity
# Mode: inhibitor
# Tested at: 0.5 µM
# Relative to: control
# Construct (Q08881 1-620): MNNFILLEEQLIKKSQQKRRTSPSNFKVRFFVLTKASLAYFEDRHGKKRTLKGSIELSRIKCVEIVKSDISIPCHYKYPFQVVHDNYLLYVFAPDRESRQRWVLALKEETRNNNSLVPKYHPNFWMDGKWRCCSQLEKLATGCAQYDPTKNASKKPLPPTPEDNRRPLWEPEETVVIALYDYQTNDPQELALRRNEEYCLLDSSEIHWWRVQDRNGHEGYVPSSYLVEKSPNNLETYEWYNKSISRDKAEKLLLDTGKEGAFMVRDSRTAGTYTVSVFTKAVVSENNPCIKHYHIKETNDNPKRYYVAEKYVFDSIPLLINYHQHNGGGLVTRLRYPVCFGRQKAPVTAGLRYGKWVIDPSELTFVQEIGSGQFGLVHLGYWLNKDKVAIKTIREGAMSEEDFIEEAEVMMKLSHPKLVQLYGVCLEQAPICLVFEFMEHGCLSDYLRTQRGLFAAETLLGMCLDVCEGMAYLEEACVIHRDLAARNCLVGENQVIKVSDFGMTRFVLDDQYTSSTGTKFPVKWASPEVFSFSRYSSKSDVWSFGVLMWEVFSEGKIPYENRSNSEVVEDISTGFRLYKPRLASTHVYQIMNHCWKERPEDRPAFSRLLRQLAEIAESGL
SMILES,remaining activity [%]
C#Cc1cccc(Nc2ncnc3cc(OCCOC)c(OCCOC)cc23)c1,106
Cc1cccc(-c2[nH]c(C(C)(C)C)nc2-c2ccc3c(c2)OCO3)n1,95.8
COc1ccc(OC)c2c(=S)c3ccccc3[nH]c12,101
Nc1ccc2ncnc(NCCc3ccc(Oc4ccccc4)cc3)c2c1,104
O=C(CCCc1ccc(-c2ccccc2F)cc1)Nc1ccc(O)cc1,85
O=C1NC(=O)C(c2cn(CCCn3ccnc3)c3ccccc23)=C1Nc1ccccc1,93.9
Nc1[nH]nc2nc3ccccc3nc12,101
COc1cc2ncnc(Nc3ccc(Oc4ccccc4)cc3)c2cc1OC,93.6
NCCNc1ncc(C(N)=O)c(Nc2cccc(C(F)(F)F)c2)n1,93
Cc1ccc(NC(=O)c2ccc(CN3CCN(C)CC3)cc2)cc1Nc1nc(-c2cccnc2)cs1,98.7
O=C1NC(=O)C(c2cn(CCCO)c3ncccc23)=C1c1cnccn1,84.7
CO[C@H]1C[C@@H]2CC[C@@H](C)[C@@](O)(O2)C(=O)C(=O)N2CCCC[C@H]2C(=O)O[C@H]([C@H](C)C[C@@H]2CC[C@@H](O)[C@H](OC)C2)CC(=O)[C@H](C)/C=C(\C)[C@@H](O)[C@@H](OC)C(=O)[C@H](C)C[C@H](C)/C=C/C=C/C=C/1C,92.5
COc1cc2ncnc(Nc3ccc(F)c(Cl)c3)c2cc1OCCCN1CCOCC1,99.9
O=C(Nc1cccc(Nc2cc(Nc3cccc(C(F)(F)F)c3)ncn2)c1)C1CC1,97.2

# Set 3
# Organism: Sarcocystis neurona
# Read-out: parasite growth
# Tested at: 10 µM
# Time: 96 h
# Notes: second screen
# Relative to: untreated
Structure (SMILES),log2 fold change
CC(C)NCC(O)COc1ccc(CC(N)=O)cc1 (stereo not drawn),0.04
C[C@H]1c2cccc(O)c2C(=O)C2=C(O)[C@]3(O)C(=O)C(C(N)=O)=C(O)[C@@H](N(C)C)[C@@H]3[C@@H](O)[C@@H]21,-0.06
Cc1ccnc2c1NC(=O)c1cccnc1N2C1CC1,0.46
C[C@]12CCC(=O)C=C1CC[C@@H]1[C@@H]2[C@@H](O)C[C@@]2(C)[C@H]1CC[C@]2(O)C(=O)CO,0.2

# Set 4
# SMILES: O=C(NC1CCNCC1)c1n[nH]cc1NC(=O)c1c(Cl)cccc1Cl
# Technique: trypan blue exclusion
# Time: 48 h
# Relative to: untreated
cell line,conditions,viability
HH,0.1 µM,70.6% and 90% and 92.1%
HuT78,1 µM,36.1%
HH,1 µM,19.6% and 16.4%
HuT78,10 µM,24.2% and 30%

# Single results of other studies
Structure (SMILES),system,conditions,quantity,result
CC(C)n1cnc(-c2ccc(F)cc2)c1-c1ncc(C(=O)Nc2ccc(N3CCN(C)CC3)cc2)[nH]1,IPF patients,"30 mg once daily, adverse event",Nausea incidence,0%
